Measured values pooled from the literature.
Every numbered part comes from another study and shows a few of its results, in no order. Values joined by “and” are separate records of one study, mostly repeats; a detail may differ.

Block 1
Target: Sal-like protein 4, full length isoform A (SALL4, Homo sapiens, UniProt Q9UJQ4, residues 1-1053)
Chain of UniProt Q9UJQ4 (whole entry, looked up): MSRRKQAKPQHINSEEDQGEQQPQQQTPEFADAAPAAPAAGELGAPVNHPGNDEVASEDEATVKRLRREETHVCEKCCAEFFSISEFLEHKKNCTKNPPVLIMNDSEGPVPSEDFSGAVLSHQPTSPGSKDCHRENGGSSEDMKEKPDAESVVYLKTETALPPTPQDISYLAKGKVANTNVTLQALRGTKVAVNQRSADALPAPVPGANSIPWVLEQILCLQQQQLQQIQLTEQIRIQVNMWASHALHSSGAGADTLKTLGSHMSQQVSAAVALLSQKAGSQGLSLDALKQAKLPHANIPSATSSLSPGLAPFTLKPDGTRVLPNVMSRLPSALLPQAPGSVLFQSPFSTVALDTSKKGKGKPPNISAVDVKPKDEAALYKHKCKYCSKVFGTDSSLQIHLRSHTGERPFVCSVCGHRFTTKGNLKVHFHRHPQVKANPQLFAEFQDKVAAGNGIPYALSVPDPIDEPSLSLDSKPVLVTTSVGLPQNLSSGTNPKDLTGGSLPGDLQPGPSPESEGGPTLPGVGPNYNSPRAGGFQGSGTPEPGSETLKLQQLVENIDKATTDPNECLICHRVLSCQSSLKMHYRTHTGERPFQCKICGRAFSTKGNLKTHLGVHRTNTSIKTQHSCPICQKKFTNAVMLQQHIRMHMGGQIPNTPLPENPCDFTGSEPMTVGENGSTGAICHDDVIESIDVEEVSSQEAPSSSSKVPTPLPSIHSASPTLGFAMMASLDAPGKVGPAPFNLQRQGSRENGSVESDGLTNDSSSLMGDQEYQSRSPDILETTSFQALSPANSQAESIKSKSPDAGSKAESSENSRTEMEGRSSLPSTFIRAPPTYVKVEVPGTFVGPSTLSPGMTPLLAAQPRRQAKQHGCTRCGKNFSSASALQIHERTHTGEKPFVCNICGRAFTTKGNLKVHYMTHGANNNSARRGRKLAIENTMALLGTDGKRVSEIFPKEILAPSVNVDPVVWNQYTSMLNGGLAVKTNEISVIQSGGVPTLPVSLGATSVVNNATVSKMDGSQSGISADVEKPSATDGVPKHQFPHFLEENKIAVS
Technique: universal PBM
Form: double-stranded DNA, one strand shown
Matrix: in vitro
Concentration: 600 nM
Setting: 8-mer, flanks averaged, mean of replicates
Reading: higher = stronger binding
`TAAACAAA` gave an E-score of 0.267.
`CTGTTTCA` gave an E-score of 0.0542.
The E-score of `AGGGAAGA` is reported as -0.0783.
`ATGCGTCG` has an E-score of -0.0389.
`GACCAGAA` gave an E-score of -0.0772.
`GTTCAAAA` has an E-score of 0.154.
With `ACGCTGTA` the E-score was 0.0957.
For `AACAGCTT`, the E-score was -0.086.
`AGGTGTCA` gave an E-score of 0.0592.
`ACAAACTC` has an E-score of 0.08.

Block 2
Target: Fragile X messenger ribonucleoprotein 1, C-terminal low-complexity region (Fmr1, Mus musculus, UniProt P35922)
Technique: RNA Bind-n-Seq
Form: RNA
Matrix: in vitro
Concentration: 200 nM
Setting: whole 134-nt RNA, ends assumed
Together with: 150 mM LiCl
Baseline: input library
Reading: higher = stronger binding
Library: 7-deaza-guanosine replaces G
Shared flanks, not repeated: GGGAGUUCUACAGUCCGACGAUC … UGGAAUUCUCGGGUGUCAAGG
`GCAGGAAGUAAAAACAAAUGGAAAUGCUUCGGAUAGUGGCAGGGGUGGGGGUUGCUAAUGAAAGGGUGGGAUGGGAGUGGGUAAAGAGUU` has a log2 enrichment of 1.17.
For `UGUGCUACACAUCGUAUGUACCGAAUCGGGGCCCCCCCGGGGCCCCCCCGGGGCCCCCCCGGGAAAGUAUUAUGUUACGCCGUUCGGAUC`, the log2 enrichment was -1.71.
The log2 enrichment of `UGGCCCUGGUGGCAUGCGGGGAGGAAGAUGUGGCCUCAUGGAUCGUGGUGGUCCCGGUGGAAUGUUCAGAGGUGGCCGUGGUGGAGACAG` is reported as 0.054.
For `CACAGACAACACGUACCCACACAGACACAGAGGGAAGGGGUUGGGAUGGGGACAGGGUGCACAGCAGGGCGGGGUAGGACCCCAGCCCCU`, the log2 enrichment was 0.0243.
The log2 enrichment of `UGGCCCUGGUGGCAUGCGGGGAGGAAGAGGUGGCCUCAUGGAUCGUGGUGGUCCCGGUGGAAUGAUCAGAGGUGGCCGUGGUGGAGACAG` is reported as -0.5.
`CCUGUGCUACACAUCGUAUGUACCGAAUCGGGUUUUUUUGGUUUUUUUGGGUUUUUUUGGGAAAGUAUUAUGUUACGCCGUUCGGAUCUG` gave a log2 enrichment of -1.29.
`UCCUGUGCUACACAUCGUAUGUACCGAAUCGGGUUUUUUGGUUUUUUGGGUUUUUUGGGGAAAGUAUUAUGUUACGCCGUUCGGAUCUGC` gave a log2 enrichment of -1.59.
`ACGCUCCAUGAAAGCUAGGAGGGAGUGAAAUAUCAGUGAUCAUCGCAAGGAAGGAGGCAGACAAGAGUAAGGCACACCUGACUCUUAGGA` gave a log2 enrichment of -2.02.
`UACUAUGAAGCCUUGUGCAAAUCCCUCGACUGGCAGAUAGACGUGGACCUACUCAAUAAAAUGAAGAAGGCAAAUGAAGAUGAGUUGAAG` has a log2 enrichment of -1.09.
For `CAAGUCCUGUGCUACACAUCGUAUGUACCGAAUCGGAAAAAAAGGUGGAAAAAGGAAAGUAUUAUGUUACGCCGUUCGGAUCUGCACUUC`, the log2 enrichment was -1.08.

Block 3
Target: RNA binding protein fox-1 homolog 2, RRM domain, GST-SBP tag (RBFOX2, Homo sapiens, UniProt O43251-10, residues 100-194)
Technique: RNA Bind-n-Seq
Form: RNA
Matrix: in vitro
Concentration: 365 nM
Setting: natural RNA segment, single round, ends assumed
Baseline: no-protein control
Reading: higher = stronger binding
Shared flanks, not repeated: GGGAGUUCUACAGUCCGACGAUC … UGGAAUUCUCGGGUGCCAA
Construct (chain): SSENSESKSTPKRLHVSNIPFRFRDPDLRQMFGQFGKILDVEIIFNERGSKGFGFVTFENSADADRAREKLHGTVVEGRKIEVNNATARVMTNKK
`AACUUUGCAACUUCCGUAAUUAGGAACCUGUUUCUUACAGCUUUUCUAUGCUAAACUUUGUUCUGUUCAGUUCUAGAGUGUAUACAGAACGAAUUGAUGUGUAACUGUAU`: “RBNS enrichment (R)” 0.4.
`GUCUACUGUGAGCUCUUUCCUUGAUUGGUUUGUGGGUUCCAUGUAUAAACAAAUGGCAAAACACAAGAGAUGGGACAAACUCAUGACAAACUGGUAUCUCUUGCUGAUGG` — result for “RBNS enrichment (R)”: 0.584.
For `AAUGAACUUGAGACGCUUCAGCAAAGGCAGCAUUGGUCACGGAGUUCAAGGGAAUAGAUGAGUAAGCAACGUUUCAAAUUUGGGAUGAAAAGACUGCCAAACUAUUGGCU`, “RBNS enrichment (R)” read 0.957.
`GCCCUAAACACCUUGUAGUUGCUGAAGACAACUCAAGAGCAUCUAAGGGGAGUAUCUCUCACGACCCUAAAUUCUGCCUCCAGCUGUGCCCAGUGAAAGACCUCAAGUCU` — result for “RBNS enrichment (R)”: 0.293.
For `CAAAUUCCUGAUGUUCUGCAAUACUCAGAAAAUUCUUUGAAUGGCAGACUUUCUUUUGUCUGUUUCUAAAAUGUGAAGCUUUAGGACCAAAUUGUUAGACAGCAUCAGGA`, “RBNS enrichment (R)” read 8.14.
`GGUUGGCAGGGCUGCCAUCCCAGCUGGCCGGAAAGAGGCUGUGGUUUCGAAUAUGCAGAUGGCCUUGGAGCCUUAAGACAGGUGCCGGGCUGGCUGCAGACAGGGUGGCU`: “RBNS enrichment (R)” 0.339.
`CUAGAGAAAACUUACAGAACAGGUGUUAAGCCUUUUCCAAUAUUUAGUAUUGUAGUCUUCAUAGAAAUCAUUUCUAGUUACAGAAAAAUUUAACUCCAGAAUAUGGUGAU`: “RBNS enrichment (R)” 0.313.
`UUAGGAAAUAAUGUUUGUAAUAAACUUAACUAUGUUACAUAUCAACAGGCAAAAAUAUAGAAUGUUACAUAGUGUUGUGUGAUUAAAUUAUAGUUCCUGCUGUUAACAUU` — result for “RBNS enrichment (R)”: 0.488.
`GAUACUUCCCUCCAAAAAAAAAUCUUUUAAUGUGGAAACAAUAAAUUUCACAGAAAAAAAAAAAAAAGGGUCGAGAUUGCUUUAUUUGGUUCCUGCUGUUCCAUGAGAAA`: “RBNS enrichment (R)” 0.774.
For `CCACGCCCCUCAUGCCCUUGUCCCAGGCCCGGGGCCUUCAGCGUUGAACACUUCCUUGCUUUUUUCACAUGUUUUAUGGAAUUGUUCACCUGGUUUGAAAUAAUAAAAUG`, “RBNS enrichment (R)” read 0.651.

Other studies, line by line
`PhoQ, residues 284 288 289 292 302 303 SLANIV` has a fold induction of 15.1 and 8.68 (PhoP, residues 12 14 15 18 19 LWHSL (Escherichia coli, UniProt P23836); Sort-seq, item: YFP reporter; E. coli; PhoQ-PhoP variant library, together with: 10 µM Mg2+; baseline: high Mg2+ state, higher = stronger signaling).

Some of these lines once more (block 2):
For `CAAGUCCUGUGCUACACAUCGUAUGUACCGAAUCGGAAAAAAAGGUGGAAAAAGGAAAGUAUUAUGUUACGCCGUUCGGAUCUGCACUUC`, the log2 enrichment was -1.08.
For `UGUGCUACACAUCGUAUGUACCGAAUCGGGGCCCCCCCGGGGCCCCCCCGGGGCCCCCCCGGGAAAGUAUUAUGUUACGCCGUUCGGAUC`, the log2 enrichment was -1.71.
For `CACAGACAACACGUACCCACACAGACACAGAGGGAAGGGGUUGGGAUGGGGACAGGGUGCACAGCAGGGCGGGGUAGGACCCCAGCCCCU`, the log2 enrichment was 0.0243.
`CCUGUGCUACACAUCGUAUGUACCGAAUCGGGUUUUUUUGGUUUUUUUGGGUUUUUUUGGGAAAGUAUUAUGUUACGCCGUUCGGAUCUG` gave a log2 enrichment of -1.29.
`UACUAUGAAGCCUUGUGCAAAUCCCUCGACUGGCAGAUAGACGUGGACCUACUCAAUAAAAUGAAGAAGGCAAAUGAAGAUGAGUUGAAG` has a log2 enrichment of -1.09.
